Measured values from different studies.
Every numbered part comes from another study and shows a few of its results, in no order.

Sample 1
Target: Interferon regulatory factor 5, full length, phosphomimetic (IRF5, Homo sapiens, UniProt Q13568-2, residues 1-514, S451D/S453D/S456D/S462D)
Method: protein-binding microarray
Form: double-stranded DNA, one strand shown
Sample: in vitro
Tested at: 940 nM top
Setting: 60-bp whole probe
Added: salmon DNA 0.4 mg/ml
Relative to: random background probes
Direction: higher = stronger binding
Quantity: fitted relative affinity
Shared flanks, not repeated: GCCTAGCAC … GTCTTGATTCGCTTGACGCTGCTG
AGGAGTATTTATCTGCAAAGGTGCTAG: -0.278 z-score
GACGGACTGGGGTTTTGGGACGTGCTA: 0.147 z-score
CTTCCCCTCTCTTTCCAACTGTGCTAG: 0.767 z-score
GATGAACTGGGGTTTCGAGACGTGCTA: 1.65 z-score
TTAGATATGGGGTATCGATTAGTGCTA: 2.66 z-score

Sample 2
Target: Histone acetyltransferase KAT6A, winged helix 1, GST fusion (KAT6A, Homo sapiens, UniProt Q92794, residues 1-85)
Method: protein binding microarray
Form: double-stranded DNA, one strand shown
Sample: in vitro
Tested at: not given
Setting: 8-mer, flanks averaged, mean of 2 arrays, mostly near background
Relative to: not given
Direction: higher = stronger binding
Quantity: E-score
Residues (chain): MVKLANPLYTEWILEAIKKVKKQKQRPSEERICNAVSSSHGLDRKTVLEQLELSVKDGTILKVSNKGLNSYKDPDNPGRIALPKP
ACGTGAGC: -0.0347
CACGAGTA: -0.00178
AAAGCTGC: -0.017
ATCTGGTG: -0.243

Sample 3
Target: RING finger protein unkempt homolog, zinc fingers 1-6, GST-SBP tag (UNK, Homo sapiens, UniProt Q9C0B0, residues 30-357)
UniProt Q9C0B0, sequence (30-357, looked up): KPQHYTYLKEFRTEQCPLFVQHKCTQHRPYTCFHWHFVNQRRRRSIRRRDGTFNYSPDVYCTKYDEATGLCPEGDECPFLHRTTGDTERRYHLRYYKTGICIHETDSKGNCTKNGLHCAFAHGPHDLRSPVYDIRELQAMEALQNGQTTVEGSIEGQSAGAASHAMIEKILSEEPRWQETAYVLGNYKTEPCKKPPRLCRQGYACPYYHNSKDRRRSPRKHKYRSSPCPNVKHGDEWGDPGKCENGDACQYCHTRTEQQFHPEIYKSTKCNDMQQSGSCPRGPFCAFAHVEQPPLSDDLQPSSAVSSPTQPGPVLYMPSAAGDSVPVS
Method: RNA Bind-n-Seq
Form: RNA
Sample: in vitro
Tested at: not given
Setting: RNA with constant flanks, human and mouse sites, ends assumed
Relative to: input RNA pool
Direction: higher = stronger binding
Quantity: bound/input enrichment
Shared flanks, not repeated: GGGAGUUCUACAGUCCGACGAUC … CAACAGAGGAUUGAGCAUCA
CUGGCUCACCCUGAUGCGCCGAUGUCGCAGAUCUAUGGGGCGCCACACCUCCUGAGAUUAUUCGUGAGAAUUGGGGCAAUGUUGGCCUAUACGCCCCUUGAUGAGAAAAGCCUGGCAUUA: 0.116 ratio
CUUAGUAGAUAAUUUGGGUGGUACUGAAGCACCUAUUAUCUCUUAUUUCUGUUCUCUAGGCUGUUAUGUUAAUUCCUCUGAUAUGUUAAAGUAAUGGGUGAGACCAGAAAAAGAAAUUUC: 0.428 ratio
GACAUUAUCAAGUUUCUGCAGGAACACGGUUCAGAUUCGUUUCUUGCAGAACAUAAAUUAUUAGGAAACAUUAAAAAUGUGGCCAAGACAGCUAACAAGGACCACUUGGUUACAGCCUAU: 3.47 ratio
GAUGCUUCCGACUUUGAGCACAUUACAGCAGAGACACCCUCAAGGCCCCUGUCCUCCACCAGUAACCCCUUUAAGAGUUCAAAGUGUUCUACUGCUGGGAGUUCCCCAAACAGCGUAAGU: 0.417 ratio
AGAACGGACAUUUCAGUACCAGGACUCUCUUCCGUCAUUGCCUGUUCCUGCACUUGAAGAAUCAUUAAAAAAAUACCUUGAAUCAGUGAAACCAUUCGCAAAUGAAGACGAGUAUAAGAA: 0.171 ratio

Other studies, line by line
PhoQ, residues 284 288 289 292 302 303 MLMVEA  fold induction (PhoP, residues 12 14 15 18 19 VHSCL (Escherichia coli, UniProt P23836); Sort-seq, item: YFP reporter; E. coli; PhoQ-PhoP variant library, added: 10 µM Mg2+; relative to: high Mg2+ state, higher = stronger signaling): 20.4

Excerpt of the above (sample 1):
CTTCCCCTCTCTTTCCAACTGTGCTAG: 0.767 z-score
